Assay results from different studies.
A part holds a random share of what one study measured. Substitutions count along the parent as printed.
Chain of UniProt P08922 (whole entry, looked up): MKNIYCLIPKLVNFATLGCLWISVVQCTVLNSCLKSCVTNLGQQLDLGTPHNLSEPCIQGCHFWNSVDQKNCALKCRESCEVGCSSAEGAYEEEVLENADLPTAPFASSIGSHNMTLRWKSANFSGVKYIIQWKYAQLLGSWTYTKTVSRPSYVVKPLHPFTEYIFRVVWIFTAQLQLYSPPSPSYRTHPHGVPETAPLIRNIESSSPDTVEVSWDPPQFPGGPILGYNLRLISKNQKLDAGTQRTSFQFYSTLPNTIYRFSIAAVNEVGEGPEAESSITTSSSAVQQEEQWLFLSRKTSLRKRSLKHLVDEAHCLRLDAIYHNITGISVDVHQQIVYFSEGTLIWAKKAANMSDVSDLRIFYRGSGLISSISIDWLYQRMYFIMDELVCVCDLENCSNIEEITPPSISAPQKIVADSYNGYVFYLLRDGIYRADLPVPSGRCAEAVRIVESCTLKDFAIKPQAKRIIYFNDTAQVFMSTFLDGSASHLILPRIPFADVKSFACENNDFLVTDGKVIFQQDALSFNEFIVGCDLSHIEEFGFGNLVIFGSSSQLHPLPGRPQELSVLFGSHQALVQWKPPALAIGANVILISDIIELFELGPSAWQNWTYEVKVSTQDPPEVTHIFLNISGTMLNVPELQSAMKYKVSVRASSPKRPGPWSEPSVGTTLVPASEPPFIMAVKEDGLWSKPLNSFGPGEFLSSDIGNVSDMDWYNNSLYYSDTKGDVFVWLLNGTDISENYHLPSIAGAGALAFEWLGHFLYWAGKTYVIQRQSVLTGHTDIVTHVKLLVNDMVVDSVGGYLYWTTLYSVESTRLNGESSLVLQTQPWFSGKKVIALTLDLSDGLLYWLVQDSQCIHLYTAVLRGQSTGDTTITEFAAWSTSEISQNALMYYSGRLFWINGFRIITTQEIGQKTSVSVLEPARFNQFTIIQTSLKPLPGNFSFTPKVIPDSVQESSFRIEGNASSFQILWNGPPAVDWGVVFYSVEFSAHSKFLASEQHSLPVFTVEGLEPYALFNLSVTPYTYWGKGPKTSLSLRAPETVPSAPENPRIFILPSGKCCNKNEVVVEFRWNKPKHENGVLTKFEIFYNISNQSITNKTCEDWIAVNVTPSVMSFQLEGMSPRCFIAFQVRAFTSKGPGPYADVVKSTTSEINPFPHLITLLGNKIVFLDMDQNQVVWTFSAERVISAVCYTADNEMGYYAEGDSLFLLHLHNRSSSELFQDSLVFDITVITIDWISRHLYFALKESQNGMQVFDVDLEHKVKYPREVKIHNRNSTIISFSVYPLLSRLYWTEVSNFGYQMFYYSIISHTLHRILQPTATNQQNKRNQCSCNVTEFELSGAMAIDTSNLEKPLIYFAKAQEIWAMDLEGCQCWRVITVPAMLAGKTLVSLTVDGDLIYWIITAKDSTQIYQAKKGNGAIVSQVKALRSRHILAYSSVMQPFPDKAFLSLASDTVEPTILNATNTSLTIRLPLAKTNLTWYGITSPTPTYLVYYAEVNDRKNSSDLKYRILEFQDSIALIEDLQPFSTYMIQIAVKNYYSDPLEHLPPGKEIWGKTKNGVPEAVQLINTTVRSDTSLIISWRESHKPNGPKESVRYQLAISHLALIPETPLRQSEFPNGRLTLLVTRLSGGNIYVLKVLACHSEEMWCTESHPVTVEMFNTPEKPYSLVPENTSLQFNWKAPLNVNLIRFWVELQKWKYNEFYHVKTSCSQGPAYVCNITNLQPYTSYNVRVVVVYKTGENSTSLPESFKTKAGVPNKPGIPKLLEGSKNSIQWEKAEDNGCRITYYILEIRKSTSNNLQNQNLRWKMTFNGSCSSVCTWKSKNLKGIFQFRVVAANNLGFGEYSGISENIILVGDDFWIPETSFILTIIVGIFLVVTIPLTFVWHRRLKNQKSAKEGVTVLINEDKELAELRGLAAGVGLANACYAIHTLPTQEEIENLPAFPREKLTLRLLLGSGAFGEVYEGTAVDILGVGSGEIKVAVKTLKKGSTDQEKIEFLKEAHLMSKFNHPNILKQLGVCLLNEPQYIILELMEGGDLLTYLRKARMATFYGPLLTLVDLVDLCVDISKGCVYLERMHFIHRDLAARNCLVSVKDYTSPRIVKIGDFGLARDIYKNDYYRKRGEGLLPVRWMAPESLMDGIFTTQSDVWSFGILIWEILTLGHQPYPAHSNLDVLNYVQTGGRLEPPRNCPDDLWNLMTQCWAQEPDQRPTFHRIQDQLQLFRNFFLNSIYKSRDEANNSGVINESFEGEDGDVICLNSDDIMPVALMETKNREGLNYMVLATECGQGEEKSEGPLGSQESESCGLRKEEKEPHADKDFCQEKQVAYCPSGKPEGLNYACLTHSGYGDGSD
Chain of UniProt Q9H2G2 (whole entry, looked up): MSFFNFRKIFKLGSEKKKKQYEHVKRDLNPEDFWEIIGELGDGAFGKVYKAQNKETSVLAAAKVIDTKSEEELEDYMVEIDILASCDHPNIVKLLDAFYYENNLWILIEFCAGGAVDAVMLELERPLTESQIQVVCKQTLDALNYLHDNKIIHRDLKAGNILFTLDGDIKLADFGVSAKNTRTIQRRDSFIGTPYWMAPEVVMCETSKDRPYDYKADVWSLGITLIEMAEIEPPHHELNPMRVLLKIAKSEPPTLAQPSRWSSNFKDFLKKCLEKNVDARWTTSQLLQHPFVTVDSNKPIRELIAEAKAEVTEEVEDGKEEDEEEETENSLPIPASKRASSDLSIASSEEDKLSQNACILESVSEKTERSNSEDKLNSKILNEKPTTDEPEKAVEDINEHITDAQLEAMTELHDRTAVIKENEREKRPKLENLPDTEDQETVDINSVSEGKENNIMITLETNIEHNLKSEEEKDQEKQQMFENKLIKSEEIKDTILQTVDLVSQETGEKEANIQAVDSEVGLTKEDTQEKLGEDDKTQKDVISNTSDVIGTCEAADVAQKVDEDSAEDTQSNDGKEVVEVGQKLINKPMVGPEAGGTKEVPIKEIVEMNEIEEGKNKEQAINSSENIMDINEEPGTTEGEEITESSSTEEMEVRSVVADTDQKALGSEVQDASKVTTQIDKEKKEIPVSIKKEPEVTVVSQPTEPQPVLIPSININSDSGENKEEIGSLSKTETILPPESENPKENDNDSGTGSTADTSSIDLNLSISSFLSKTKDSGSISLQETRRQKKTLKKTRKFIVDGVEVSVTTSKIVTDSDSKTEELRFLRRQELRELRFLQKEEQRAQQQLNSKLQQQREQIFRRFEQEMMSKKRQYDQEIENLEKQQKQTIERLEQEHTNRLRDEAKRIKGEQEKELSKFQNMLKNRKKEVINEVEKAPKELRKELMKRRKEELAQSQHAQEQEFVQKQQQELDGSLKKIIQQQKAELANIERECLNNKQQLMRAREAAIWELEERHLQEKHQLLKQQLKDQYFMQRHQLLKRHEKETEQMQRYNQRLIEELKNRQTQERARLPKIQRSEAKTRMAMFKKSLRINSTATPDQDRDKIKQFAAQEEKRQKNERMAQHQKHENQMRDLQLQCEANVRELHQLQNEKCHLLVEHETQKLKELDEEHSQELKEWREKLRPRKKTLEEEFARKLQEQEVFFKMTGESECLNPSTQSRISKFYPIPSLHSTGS
Chain of UniProt Q16288 (whole entry, looked up): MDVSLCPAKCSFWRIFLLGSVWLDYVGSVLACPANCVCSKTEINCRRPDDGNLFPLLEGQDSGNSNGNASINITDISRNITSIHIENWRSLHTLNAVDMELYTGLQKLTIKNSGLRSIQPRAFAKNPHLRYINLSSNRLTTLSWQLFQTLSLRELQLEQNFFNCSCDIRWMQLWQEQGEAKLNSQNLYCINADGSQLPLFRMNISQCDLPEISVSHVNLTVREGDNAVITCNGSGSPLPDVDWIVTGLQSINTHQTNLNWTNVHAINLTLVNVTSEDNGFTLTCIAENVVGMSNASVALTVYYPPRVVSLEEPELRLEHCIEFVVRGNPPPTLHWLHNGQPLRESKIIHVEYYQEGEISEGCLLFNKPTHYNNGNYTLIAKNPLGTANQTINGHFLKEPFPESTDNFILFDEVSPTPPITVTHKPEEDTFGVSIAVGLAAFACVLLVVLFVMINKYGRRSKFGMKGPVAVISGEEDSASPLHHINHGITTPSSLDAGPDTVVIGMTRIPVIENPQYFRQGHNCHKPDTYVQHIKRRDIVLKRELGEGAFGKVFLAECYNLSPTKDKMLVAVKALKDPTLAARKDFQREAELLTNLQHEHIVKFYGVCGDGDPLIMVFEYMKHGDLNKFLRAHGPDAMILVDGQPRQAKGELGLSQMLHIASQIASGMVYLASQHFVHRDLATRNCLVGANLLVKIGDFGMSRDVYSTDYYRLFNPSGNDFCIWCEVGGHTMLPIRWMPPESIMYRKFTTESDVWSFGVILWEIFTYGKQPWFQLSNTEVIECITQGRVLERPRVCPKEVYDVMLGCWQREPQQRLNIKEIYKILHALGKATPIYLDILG
Chain of UniProt P19784 (whole entry, looked up): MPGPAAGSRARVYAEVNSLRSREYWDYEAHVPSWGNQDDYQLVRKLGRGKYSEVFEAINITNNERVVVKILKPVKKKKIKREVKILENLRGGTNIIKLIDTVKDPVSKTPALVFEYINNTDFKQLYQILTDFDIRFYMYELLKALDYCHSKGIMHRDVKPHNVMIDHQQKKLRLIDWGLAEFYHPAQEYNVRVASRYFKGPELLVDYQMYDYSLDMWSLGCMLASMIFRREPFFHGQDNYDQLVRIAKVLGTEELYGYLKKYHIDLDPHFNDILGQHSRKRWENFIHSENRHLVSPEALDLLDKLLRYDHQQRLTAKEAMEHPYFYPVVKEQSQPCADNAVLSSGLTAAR

Sample 1
Target: CCND1, cyclin fold, Cln2 fusion (human)
Method: yeast growth competition, sequencing
Matrix: yeast
Notes: weak parent motif
Baseline: not given
Direction: higher = stronger binding
Starting sequence: viral docking peptide; TSVRRALFTGGSD; partner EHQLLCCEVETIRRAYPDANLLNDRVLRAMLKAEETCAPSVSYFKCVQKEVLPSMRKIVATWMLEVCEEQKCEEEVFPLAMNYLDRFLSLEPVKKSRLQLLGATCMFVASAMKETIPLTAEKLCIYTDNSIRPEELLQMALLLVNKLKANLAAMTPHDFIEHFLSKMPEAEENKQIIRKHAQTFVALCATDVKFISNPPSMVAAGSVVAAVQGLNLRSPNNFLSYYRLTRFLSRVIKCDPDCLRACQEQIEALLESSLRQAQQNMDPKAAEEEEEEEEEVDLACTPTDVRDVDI
`TSVRRALFTGGSA [D13A]`: “normalised enrichment score” 0.411.
For `TSVRRALFTVGSD [G10V]`, “normalised enrichment score” read 0.189.
Under “normalised enrichment score”, `TSVRRAEFTGGSD [L7E]` is recorded as 0.232.
`TCVRRALFTGGSD [S2C]` — result for “normalised enrichment score”: 0.41.
Under “normalised enrichment score”, `TSVRRTLFTGGSD [A6T]` is recorded as 0.134.
`TSVRRALFPGGSD [T9P]` — result for “normalised enrichment score”: 0.221.
Under “normalised enrichment score”, `TSVKRALFTGGSD [R4K]` is recorded as 0.421.
`TSVRNALFTGGSD [R5N]`: “normalised enrichment score” 0.288.

Sample 2
Target: vanadate, free oxyanion
Method: microfluidic competitive inhibition
Matrix: in vitro, cell-free expressed
Concentration: not given
Notes: derived from inhibition constants, unchanged parent 676 nM
Direction: lower = stronger binding
Starting sequence: PafA, mature enzyme, eGFP fusion (Elizabethkingia meningoseptica, UniProt Q9KJX5); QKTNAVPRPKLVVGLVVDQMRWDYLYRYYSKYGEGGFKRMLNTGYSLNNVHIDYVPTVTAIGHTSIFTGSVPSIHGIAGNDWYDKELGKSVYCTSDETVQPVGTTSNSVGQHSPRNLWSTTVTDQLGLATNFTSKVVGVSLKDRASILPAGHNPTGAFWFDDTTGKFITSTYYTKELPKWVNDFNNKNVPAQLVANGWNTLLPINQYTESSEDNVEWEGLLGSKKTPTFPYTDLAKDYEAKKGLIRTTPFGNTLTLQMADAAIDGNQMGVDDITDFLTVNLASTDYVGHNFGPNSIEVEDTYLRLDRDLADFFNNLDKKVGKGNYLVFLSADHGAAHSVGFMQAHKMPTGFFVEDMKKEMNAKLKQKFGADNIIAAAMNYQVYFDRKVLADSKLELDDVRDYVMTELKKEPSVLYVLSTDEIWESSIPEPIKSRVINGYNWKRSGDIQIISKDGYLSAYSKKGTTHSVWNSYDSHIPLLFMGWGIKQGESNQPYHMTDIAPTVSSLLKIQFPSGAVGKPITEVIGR
`E212V`: “oxyanion analog dissociation constant” 0.72 µM.
`K241G` — result for “oxyanion analog dissociation constant”: 0.672 µM.
Under “oxyanion analog dissociation constant”, `L479G` is recorded as 0.5 µM.
For `V353A`, “oxyanion analog dissociation constant” read 0.904 µM.
`I263G` — result for “oxyanion analog dissociation constant”: 2.61 µM.
`F351G` — result for “oxyanion analog dissociation constant”: 0.59 µM.
`L309V` — result for “oxyanion analog dissociation constant”: 0.83 µM.
Under “oxyanion analog dissociation constant”, `N116V` is recorded as 0.896 µM.

Sample 3
Target: 5-hydroxytryptamine receptor 1A (HTR1A, Homo sapiens, UniProt P08908)
Read-out: ligand displacement
Concentration: 10 µM
For `O=C(NCCCC1CCCCC1)c1ccc(CNC(=O)c2cnn(-c3ccccc3)c2C(F)(F)F)cc1`, the inhibition was 20.1%.
With `CC1=C(C#N)C(c2ccc3[nH]nc(C)c3c2)C(C#N)=C(C)N1` the inhibition was -5.32%.
The inhibition of `NS(=O)(=O)c1cc(NC(=O)Cc2ccccc2)ccc1Oc1cccc(Cl)c1` is reported as -1.77%.
With `O=C(Nc1cnc(Oc2ccc(F)cc2)nc1)N1CCc2ncccc2[C@@H]1c1ccc(F)cc1` the inhibition was -8.97%.
`CC(=O)Nc1nc(CN2CCC[C@H](Cc3cc(C)nc(C)c3)C2)cs1` has an inhibition of 12.3%.
The inhibition of `CCOc1ccc(S(=O)(=O)Nc2ccc(Cl)cc2C#Cc2cnc(C(=O)O)cc2OC)c2ncccc12` is reported as 18.6%.
For `CC1CCN(c2ccnc(NCc3cn(C)cn3)n2)CC1`, the inhibition was 30%.
For `COc1cc(N[C@@H]2CCCC[C@]2(O)C(F)(F)F)ccc1F`, the inhibition was 6.99%.
The inhibition of `Cc1ccccc1Oc1cc(-n2c(=O)cc(C(F)(F)F)[nH]c2=O)c2ccccc2c1Cl` is reported as 8.88%.
The inhibition of `N#CC1(c2ccccn2)CCN(Cc2cc(C(=O)N3CCCC3)c(=O)n3ccccc23)CC1` is reported as 26.7%.
The inhibition of `O=C(Nc1cccnn1)N1CC(CC=Cc2cncc(Oc3ccc(C(F)(F)F)cn3)n2)C1` is reported as -25%.
The inhibition of `CN1CCN(c2ccnc(NCCc3ccccc3)n2)CC1` is reported as 26.7%.
The inhibition of `N#CC1(c2ccccn2)CCN(Cc2cc(C(=O)O)c(=O)n3ccccc23)CC1` is reported as 21%.

Sample 4
Structure (SMILES): N/C(=N\[N+](=O)[O-])N/N=C\c1ccc(-c2cccc([N+](=O)[O-])c2)o1
Read-out: enzyme activity
Mode: inhibitor
Concentration: 0.5 µM
Baseline: control
STE20-like serine/threonine-protein kinase (SLK, Homo sapiens, UniProt Q9H2G2) — remaining activity: 101%.
Casein kinase II subunit alpha' (CSNK2A2, Homo sapiens, UniProt P19784) — remaining activity: 107%.
Proto-oncogene tyrosine-protein kinase ROS (ROS1, Homo sapiens, UniProt P08922) — remaining activity: 97.5%.
NT-3 growth factor receptor (NTRK3, Homo sapiens, UniProt Q16288) — remaining activity: 104%.

A few entries again (sample 3):
With `O=C(Nc1cnc(Oc2ccc(F)cc2)nc1)N1CCc2ncccc2[C@@H]1c1ccc(F)cc1` the inhibition was -8.97%.
`CC(=O)Nc1nc(CN2CCC[C@H](Cc3cc(C)nc(C)c3)C2)cs1` has an inhibition of 12.3%.
The inhibition of `CCOc1ccc(S(=O)(=O)Nc2ccc(Cl)cc2C#Cc2cnc(C(=O)O)cc2OC)c2ncccc12` is reported as 18.6%.
For `CC1CCN(c2ccnc(NCc3cn(C)cn3)n2)CC1`, the inhibition was 30%.
